# Measurements of several laboratories.
# Protocols differ between the studies behind these lines. ± marks the error that the study gave.
SMILES,target or system,assay,test system,conditions,scale,quantity,result
CCCOC(=O)N1c2cc(CNC)ccc2[C@H](NC(=O)C(=O)Nc2ccc(Cl)c(F)c2)[C@H]1CNC(=N)N,Human immunodeficiency virus 1,"viral infection, Env pseudovirus","TZM-bl, Du172.17 clade C",,,IC80,56.5 µM
C[C@H](Nc1ncnc(N)c1C#N)c1c(-c2ccccc2)[nH]c2c(Cl)cccc2c1=O,primary CLL cells,"AKT phosphorylation, inhibitor",,"30 min, added: anti-IgM",any decrease,minimum effective concentration,≥ 100 nM
F[P-](F)(F)(F)(F)F.OC(Cn1cncn1)(Cn1cc(-[c-]2cccc2)nn1)c1ccc(F)cc1F.[Co+3].c1cc[cH-]c1 (racemic),Brugia pahangi,"motility, Worminator",adult female,"50 µM, 2 d",,inhibition,14%
CNCc1ccc2c(c1)C[C@H](CNC(=N)N)[C@H]2NC(=O)C(=O)Nc1ccc(Cl)c(F)c1,Human immunodeficiency virus 1,"viral infection, Env pseudovirus","TZM-bl, 6405.v4.c34 clade D",,,IC80,24.3 µM
CC(=O)NCCN(CC(=O)NCCN(CC(=O)NCCN(CC(=O)NCCC(N)=O)C(=O)[C@@H](N)Cc1ccccc1)C(=O)[C@@H](N)CCCNC(=N)N)C(=O)[C@@H](N)Cc1ccccc1,HIV-1 TAR RNA,,,"concentration not given, 25 °C",,binding entropy term TΔS°,-4.83 ± 0.406 kcal/mol

# Repeated from above:
SMILES,target or system,assay,test system,conditions,scale,quantity,result
F[P-](F)(F)(F)(F)F.OC(Cn1cncn1)(Cn1cc(-[c-]2cccc2)nn1)c1ccc(F)cc1F.[Co+3].c1cc[cH-]c1 (racemic),Brugia pahangi,"motility, Worminator",adult female,"50 µM, 2 d",,inhibition,14%
